Measured values collected from several papers.
A part holds a random share of what one study measured. “And” joins repeats or separate records; there may be more than shown.
Chain of UniProt P28223 (whole entry, looked up): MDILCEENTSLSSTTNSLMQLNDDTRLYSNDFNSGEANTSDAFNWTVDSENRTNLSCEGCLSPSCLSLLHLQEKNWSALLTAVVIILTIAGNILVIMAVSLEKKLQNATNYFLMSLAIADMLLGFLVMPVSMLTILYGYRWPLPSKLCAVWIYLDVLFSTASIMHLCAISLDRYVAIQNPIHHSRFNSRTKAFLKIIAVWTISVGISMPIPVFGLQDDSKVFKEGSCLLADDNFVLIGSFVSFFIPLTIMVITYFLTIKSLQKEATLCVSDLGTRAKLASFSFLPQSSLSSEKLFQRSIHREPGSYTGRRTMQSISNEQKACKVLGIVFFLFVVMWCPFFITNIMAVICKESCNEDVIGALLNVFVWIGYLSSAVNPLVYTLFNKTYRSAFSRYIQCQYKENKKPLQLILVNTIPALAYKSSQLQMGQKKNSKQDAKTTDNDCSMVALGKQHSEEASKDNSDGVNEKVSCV

Sample 1
Technique: logD(dd/w) and ALogP
Setting: JT method
For `CC(C)C[C@@H]1NC(=O)[C@H](C)NC(=O)[C@@H](CC(C)C)NC(=O)[C@@H](CC(C)C)NC(=O)[C@H](C)NC(=O)[C@H](CC(C)C)NC(=O)[C@@H](CC(C)C)NC1=O`, “lipophilic permeability efficiency” read 2.87.
Under “lipophilic permeability efficiency”, `CC(C)C[C@@H]1NC(=O)[C@H](CC(C)C)NC(=O)[C@H](CC(C)C)NC(=O)[C@H](C(C)C)NC(=O)[C@H](C)NC(=O)[C@@H](CC(C)C)NC(=O)[C@H](C)NC1=O` is recorded as 2.7.
`CC(C)C[C@@H]1NC(=O)[C@H](CC(C)C)NC(=O)[C@H](CC(C)C)NC(=O)[C@H](CC(C)C)NC(=O)[C@@H](Cc2cscn2)NC(=O)[C@H](CCC(=O)N2CCCC2)NC(=O)[C@H](C)NC1=O`: “lipophilic permeability efficiency” 1.64.
Under “lipophilic permeability efficiency”, `CC(C)C[C@@H]1NC(=O)[C@H](C)NC(=O)[C@@H](CC(C)C)NC(=O)[C@H](C)NC(=O)[C@@H](CCC(=O)N2CCCC2)NC(=O)[C@H](CC(C)C)NC(=O)[C@@H](CC(C)C)NC1=O` is recorded as 2.29.
`CC(C)C[C@@H]1NC(=O)[C@H](C)NC(=O)[C@H](CCC(=O)N2CCCC2)NC(=O)[C@H](CCC(=O)N2CCCC2)NC(=O)[C@@H](CCC(=O)N2CCCC2)NC(=O)[C@H](CC(C)C)NC(=O)[C@@H](CC(C)C)NC1=O` — result for “lipophilic permeability efficiency”: 2.47.
For `CC(C)C[C@@H]1NC(=O)[C@H](Cc2cscn2)NC(=O)[C@H](CCC(=O)N2CCCC2)NC(=O)[C@H](CCC(=O)N2CCCC2)NC(=O)[C@@H](Cc2cscn2)NC(=O)[C@H](CC(C)C)NC(=O)[C@@H](CC(C)C)NC1=O`, “lipophilic permeability efficiency” read 1.5.
Under “lipophilic permeability efficiency”, `CC(C)C[C@@H]1NC(=O)[C@H](C)NC(=O)[C@@H](CC(C)C)NC(=O)[C@H](C)NC(=O)[C@H](C(C)C)NC(=O)[C@H](CC(C)C)NC(=O)[C@@H](CC(C)C)NC1=O` is recorded as 2.6.
Under “lipophilic permeability efficiency”, `CC(C)C[C@@H]1NC(=O)[C@H](Cc2cscn2)NC(=O)[C@H](Cc2cscn2)NC(=O)[C@@H](CC(C)C)NC(=O)[C@@H](CCC(=O)N2CCCC2)NC(=O)[C@H](CC(C)C)NC(=O)[C@@H](CC(C)C)NC1=O` is recorded as 2.73.

Sample 2
Structure (SMILES): Cc1cc2c(C(N)=O)c(N)n(-c3c(C)ccc(O)c3C)c2nc1C
Reference: DMSO
It gave 102% and 101% for cell growth (NCI-H1048; MTT; 1.52 nM, 5 d).
NCI-H69; MTT; 41.1 nM, 5 d — cell growth: 107% and 91.4%.
NCI-H69; MTT; 3.33 µM, 5 d — cell growth: 39.5% and 34.9%.
The cell growth was 103% and 122% (NCI-H446; Vi-Cell counting; 1.52 nM, 5 days).
For NCI-H1048; MTT; 124 nM, 5 d: cell growth read 80.2% and 78.2%.
For NCI-H69; MTT; 371 nM, 5 d: cell growth read 91% and 117%.
The cell growth was 0.0741% and 0.0926% (NCI-H1048; MTT; 10 µM, 5 d).
It gave 5.49% and 7.1% for cell growth (NCI-H69; MTT; 10 µM, 5 d).

Sample 3
Cell line: mouse MPNST tumor cells
Technique: high-content immunofluorescence imaging
Item: nuclear SOX9
Tested at: 10 µM
Time: 12 h
Setting: mean of 2 replicates
Reference: DMSO control
Reading: higher = more nuclear SOX9
For `c1cnc2cc3c(cc2n1)[C@@H]1CNC[C@H]3C1`, “nuclear SOX9 intensity” read 130 % of DMSO and 106 % of DMSO.
`CCCc1cc(=O)[nH]c(=S)[nH]1` — result for “nuclear SOX9 intensity”: 95.7 % of DMSO and 97.5 % of DMSO.
For `Cc1cc(C(C)(C)CC(C)(C)C)ccc1OCCOCC[N+](C)(C)Cc1ccccc1`, “nuclear SOX9 intensity” read 125 % of DMSO.
Under “nuclear SOX9 intensity”, `CC[C@H]1OC(=O)[C@H](C)[C@@H](O[C@H]2C[C@@](C)(OC)[C@@H](O)[C@H](C)O2)[C@H](C)[C@@H](O[C@@H]2O[C@H](C)C[C@H](N(C)C)[C@H]2O)[C@](C)(O)C[C@@H](C)C(=O)[C@H](C)[C@@H](O)[C@]1(C)O` is recorded as 109 % of DMSO.
`CC=CC1=C(C(=O)O)N2C(=O)[C@@H](NC(=O)[C@H](N)c3ccc(O)cc3)[C@H]2SC1`: “nuclear SOX9 intensity” 87.4 % of DMSO.
`CCN(CC)C(=O)N1CCN(C)CC1`: “nuclear SOX9 intensity” 96 % of DMSO and 94.9 % of DMSO.
Under “nuclear SOX9 intensity”, `O=C1OC(CN2CCOCC2)CN1/N=C/c1ccc([N+](=O)[O-])o1` (stereo not shown) is recorded as 104 % of DMSO.
`Nc1nccc(/C=C/c2ccccc2)n1` — result for “nuclear SOX9 intensity”: 78.2 % of DMSO.

Single results of other studies
For `COc1ccc2c(c1)O[C@@H](c1ccc(OC)c(OC)c1)C[C@H]2NC(=O)C1(c2ccc3c(c2)OC(F)(F)O3)CC1`, the inhibition was 7.46% (5-hydroxytryptamine receptor 2A (HTR2A, Homo sapiens, UniProt P28223); ligand displacement; 10 µM).

Excerpt of the above (sample 3):
`Nc1nccc(/C=C/c2ccccc2)n1` — result for “nuclear SOX9 intensity”: 78.2 % of DMSO.
For `Cc1cc(C(C)(C)CC(C)(C)C)ccc1OCCOCC[N+](C)(C)Cc1ccccc1`, “nuclear SOX9 intensity” read 125 % of DMSO.
Under “nuclear SOX9 intensity”, `O=C1OC(CN2CCOCC2)CN1/N=C/c1ccc([N+](=O)[O-])o1` (stereo not shown) is recorded as 104 % of DMSO.
